Assay results pooled from the literature.
Every numbered part comes from another study and shows a few of its results, in no order. Changes are numbered by the printed parent chain.
Chain of UniProt Q9H2K8 (whole entry, looked up): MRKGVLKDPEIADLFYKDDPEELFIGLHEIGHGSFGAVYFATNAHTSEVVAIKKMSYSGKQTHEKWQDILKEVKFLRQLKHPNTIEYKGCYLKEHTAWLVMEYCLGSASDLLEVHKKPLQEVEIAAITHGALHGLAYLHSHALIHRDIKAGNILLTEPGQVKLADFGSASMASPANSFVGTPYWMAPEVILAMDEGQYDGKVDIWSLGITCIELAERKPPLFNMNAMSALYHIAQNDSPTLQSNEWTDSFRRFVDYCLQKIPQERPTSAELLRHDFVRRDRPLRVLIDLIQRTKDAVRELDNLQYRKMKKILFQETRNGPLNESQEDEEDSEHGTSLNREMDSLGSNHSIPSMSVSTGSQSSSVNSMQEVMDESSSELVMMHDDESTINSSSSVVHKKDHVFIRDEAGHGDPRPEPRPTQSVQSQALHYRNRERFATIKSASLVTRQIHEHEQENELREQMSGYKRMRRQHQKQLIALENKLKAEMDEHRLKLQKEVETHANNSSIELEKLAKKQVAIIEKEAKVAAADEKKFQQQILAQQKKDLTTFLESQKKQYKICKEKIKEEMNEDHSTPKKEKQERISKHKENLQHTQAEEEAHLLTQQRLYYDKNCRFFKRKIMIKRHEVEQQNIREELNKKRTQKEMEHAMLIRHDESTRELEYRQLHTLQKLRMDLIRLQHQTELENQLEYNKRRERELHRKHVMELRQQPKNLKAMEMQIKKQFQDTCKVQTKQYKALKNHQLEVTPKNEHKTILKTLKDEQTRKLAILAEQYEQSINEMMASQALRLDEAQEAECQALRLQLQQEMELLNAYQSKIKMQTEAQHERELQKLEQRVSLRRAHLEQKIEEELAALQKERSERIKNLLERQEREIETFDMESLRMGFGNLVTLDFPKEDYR
Chain of UniProt Q08881 (whole entry, looked up): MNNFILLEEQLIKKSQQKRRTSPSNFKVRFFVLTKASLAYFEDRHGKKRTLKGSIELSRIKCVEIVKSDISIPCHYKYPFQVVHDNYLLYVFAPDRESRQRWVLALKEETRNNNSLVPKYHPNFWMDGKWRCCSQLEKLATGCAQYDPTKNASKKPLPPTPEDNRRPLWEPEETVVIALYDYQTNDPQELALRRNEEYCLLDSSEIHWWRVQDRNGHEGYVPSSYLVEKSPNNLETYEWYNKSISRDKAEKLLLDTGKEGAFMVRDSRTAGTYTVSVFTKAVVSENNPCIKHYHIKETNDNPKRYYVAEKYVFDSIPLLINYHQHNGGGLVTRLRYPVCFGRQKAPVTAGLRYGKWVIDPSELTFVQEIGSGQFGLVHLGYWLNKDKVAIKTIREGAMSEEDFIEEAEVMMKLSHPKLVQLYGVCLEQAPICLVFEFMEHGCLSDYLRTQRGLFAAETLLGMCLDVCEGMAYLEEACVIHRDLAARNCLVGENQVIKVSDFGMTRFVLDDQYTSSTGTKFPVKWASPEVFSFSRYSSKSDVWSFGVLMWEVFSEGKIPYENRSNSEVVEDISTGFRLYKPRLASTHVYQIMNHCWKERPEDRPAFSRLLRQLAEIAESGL
Chain of UniProt P35916 (whole entry, looked up): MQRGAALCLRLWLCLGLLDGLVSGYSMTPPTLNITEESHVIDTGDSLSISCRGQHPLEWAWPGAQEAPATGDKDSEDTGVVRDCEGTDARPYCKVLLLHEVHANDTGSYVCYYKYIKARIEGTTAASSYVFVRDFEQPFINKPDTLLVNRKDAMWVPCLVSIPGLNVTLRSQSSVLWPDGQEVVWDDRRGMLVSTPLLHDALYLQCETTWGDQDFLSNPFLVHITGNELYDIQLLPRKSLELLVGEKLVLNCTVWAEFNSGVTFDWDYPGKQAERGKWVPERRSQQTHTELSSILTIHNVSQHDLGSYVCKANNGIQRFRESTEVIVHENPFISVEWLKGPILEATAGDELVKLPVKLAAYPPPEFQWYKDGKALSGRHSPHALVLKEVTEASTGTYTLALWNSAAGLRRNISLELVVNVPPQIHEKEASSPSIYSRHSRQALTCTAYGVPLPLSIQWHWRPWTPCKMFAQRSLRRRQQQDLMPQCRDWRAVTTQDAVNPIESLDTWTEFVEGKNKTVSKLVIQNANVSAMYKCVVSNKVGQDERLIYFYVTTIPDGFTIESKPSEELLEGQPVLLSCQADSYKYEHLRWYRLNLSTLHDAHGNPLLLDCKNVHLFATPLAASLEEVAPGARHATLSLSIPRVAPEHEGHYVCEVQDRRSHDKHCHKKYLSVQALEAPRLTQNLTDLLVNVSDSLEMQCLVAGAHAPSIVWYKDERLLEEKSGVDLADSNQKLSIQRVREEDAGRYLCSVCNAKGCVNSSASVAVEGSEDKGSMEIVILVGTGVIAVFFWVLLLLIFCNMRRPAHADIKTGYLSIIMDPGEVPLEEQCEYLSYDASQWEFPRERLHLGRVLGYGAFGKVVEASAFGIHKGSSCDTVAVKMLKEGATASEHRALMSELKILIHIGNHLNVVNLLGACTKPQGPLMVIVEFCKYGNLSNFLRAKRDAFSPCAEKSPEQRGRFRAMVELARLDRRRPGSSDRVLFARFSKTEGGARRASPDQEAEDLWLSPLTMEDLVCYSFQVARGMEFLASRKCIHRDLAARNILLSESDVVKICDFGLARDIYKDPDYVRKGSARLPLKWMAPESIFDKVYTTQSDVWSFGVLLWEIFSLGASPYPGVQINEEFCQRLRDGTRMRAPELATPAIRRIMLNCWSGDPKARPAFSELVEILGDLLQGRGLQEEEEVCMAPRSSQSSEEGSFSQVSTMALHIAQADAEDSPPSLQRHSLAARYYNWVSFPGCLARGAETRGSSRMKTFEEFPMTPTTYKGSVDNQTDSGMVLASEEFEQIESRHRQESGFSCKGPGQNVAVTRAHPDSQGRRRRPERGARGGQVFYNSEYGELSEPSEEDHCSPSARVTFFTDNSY
Chain of UniProt P51817 (whole entry, looked up): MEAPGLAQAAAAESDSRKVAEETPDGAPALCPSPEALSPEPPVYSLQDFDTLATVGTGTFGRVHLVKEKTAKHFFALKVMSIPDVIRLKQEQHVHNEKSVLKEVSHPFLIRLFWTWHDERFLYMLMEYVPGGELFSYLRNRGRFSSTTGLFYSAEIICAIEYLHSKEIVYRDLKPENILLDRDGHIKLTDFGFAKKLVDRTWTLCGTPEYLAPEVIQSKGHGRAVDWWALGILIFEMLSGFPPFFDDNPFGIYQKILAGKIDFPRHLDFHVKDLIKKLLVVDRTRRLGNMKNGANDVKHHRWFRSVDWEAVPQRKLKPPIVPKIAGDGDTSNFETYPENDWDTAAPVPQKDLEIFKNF
Chain of UniProt Q5VT25 (whole entry, looked up): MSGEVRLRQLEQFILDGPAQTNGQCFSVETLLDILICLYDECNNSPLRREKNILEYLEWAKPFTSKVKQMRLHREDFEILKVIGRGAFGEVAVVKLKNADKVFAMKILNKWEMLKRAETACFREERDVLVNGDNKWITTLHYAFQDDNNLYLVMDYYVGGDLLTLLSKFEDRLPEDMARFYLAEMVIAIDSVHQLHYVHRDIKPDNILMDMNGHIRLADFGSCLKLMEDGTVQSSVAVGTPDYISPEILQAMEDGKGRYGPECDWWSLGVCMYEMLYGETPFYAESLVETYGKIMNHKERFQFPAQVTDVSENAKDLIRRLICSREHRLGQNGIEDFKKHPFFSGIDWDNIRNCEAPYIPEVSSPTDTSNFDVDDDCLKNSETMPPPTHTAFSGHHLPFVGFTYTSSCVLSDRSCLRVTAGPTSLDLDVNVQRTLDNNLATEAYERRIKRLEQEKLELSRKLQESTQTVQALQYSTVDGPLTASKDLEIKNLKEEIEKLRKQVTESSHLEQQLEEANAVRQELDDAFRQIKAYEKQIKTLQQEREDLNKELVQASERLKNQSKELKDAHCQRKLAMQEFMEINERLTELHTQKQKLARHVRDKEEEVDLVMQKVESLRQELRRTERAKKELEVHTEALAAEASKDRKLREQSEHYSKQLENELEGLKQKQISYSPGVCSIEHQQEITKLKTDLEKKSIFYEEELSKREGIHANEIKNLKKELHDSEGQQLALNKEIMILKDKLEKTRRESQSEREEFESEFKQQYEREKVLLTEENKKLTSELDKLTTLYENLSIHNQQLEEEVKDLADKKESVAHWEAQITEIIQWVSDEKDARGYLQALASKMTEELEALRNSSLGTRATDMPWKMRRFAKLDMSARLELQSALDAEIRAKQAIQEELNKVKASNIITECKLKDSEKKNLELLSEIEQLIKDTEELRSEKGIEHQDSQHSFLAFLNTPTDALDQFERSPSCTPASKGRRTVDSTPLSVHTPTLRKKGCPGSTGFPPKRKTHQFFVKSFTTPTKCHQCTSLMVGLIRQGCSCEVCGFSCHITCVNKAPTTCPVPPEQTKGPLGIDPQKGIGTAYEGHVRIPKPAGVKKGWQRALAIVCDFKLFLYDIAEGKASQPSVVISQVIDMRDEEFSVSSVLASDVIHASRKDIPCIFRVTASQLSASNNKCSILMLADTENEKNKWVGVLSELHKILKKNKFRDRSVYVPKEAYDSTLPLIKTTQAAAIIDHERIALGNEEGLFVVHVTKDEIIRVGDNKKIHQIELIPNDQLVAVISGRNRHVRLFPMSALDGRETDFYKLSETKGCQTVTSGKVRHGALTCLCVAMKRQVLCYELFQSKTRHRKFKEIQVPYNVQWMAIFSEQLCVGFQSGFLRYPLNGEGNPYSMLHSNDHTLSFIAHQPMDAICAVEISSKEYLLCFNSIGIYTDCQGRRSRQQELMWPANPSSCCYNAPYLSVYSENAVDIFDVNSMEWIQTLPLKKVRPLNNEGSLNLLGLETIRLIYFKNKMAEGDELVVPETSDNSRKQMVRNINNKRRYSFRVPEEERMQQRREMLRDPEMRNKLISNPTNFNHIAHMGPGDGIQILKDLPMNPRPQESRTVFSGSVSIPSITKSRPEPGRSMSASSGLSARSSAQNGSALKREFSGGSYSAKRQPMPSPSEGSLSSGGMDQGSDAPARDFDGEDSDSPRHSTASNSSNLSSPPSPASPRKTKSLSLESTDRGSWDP

Set 1
Target: tungstate, free oxyanion
Method: microfluidic competitive inhibition
Matrix: in vitro, cell-free expressed
Tested at: not given
Notes: derived from inhibition constants, unchanged parent 2230 nM
Reading: lower = stronger binding
Starting sequence: PafA, mature enzyme, eGFP fusion (Elizabethkingia meningoseptica, UniProt Q9KJX5); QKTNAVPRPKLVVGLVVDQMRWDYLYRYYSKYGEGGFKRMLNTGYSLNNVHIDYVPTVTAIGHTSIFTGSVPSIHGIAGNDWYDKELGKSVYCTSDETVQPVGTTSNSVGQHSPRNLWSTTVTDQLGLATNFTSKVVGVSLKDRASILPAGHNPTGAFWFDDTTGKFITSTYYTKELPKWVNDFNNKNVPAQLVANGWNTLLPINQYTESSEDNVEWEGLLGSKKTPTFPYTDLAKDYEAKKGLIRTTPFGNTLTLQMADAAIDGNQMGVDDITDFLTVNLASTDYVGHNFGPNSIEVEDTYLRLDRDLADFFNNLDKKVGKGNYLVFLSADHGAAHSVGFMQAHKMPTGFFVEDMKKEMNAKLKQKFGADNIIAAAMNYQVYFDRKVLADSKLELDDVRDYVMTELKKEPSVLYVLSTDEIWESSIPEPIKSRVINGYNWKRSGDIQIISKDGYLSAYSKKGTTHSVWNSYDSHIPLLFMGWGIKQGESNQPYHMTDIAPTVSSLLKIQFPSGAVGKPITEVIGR
Variant	oxyanion analog dissociation constant [nM]
F341G	933
K318V	2380
A331V	2730
I74V	2420
W198G	1130
I450V	2310
Q492V	2510
K319G	1960

Set 2
Target: CCNB1, cyclin fold, Cln2 fusion (human)
Method: yeast growth competition, sequencing
Matrix: yeast
Notes: strong parent motif
Relative to: not given
Reading: higher = stronger binding
Starting sequence: viral docking peptide; TSVRRALFTGGSD
Variant	normalised enrichment score
V3C	1.13
V3M	0.0981
T9Y	1.82
G10S	2.49
S2E	2.45
V3H	0.0896
V3Y	0.426
F8Y	0.106

Set 3
Compound: N/C(=N\[N+](=O)[O-])N/N=C\c1ccc(-c2cccc([N+](=O)[O-])c2)o1
Effect on: enzyme activity
Action: inhibitor
Tested at: 0.5 µM
Relative to: control
target	remaining activity
Serine/threonine-protein kinase TAO3 (TAOK3, Homo sapiens, UniProt Q9H2K8)	99.5%
Serine/threonine-protein kinase MRCK alpha (CDC42BPA, Homo sapiens, UniProt Q5VT25)	87.3%
Vascular endothelial growth factor receptor 3 (FLT4, Homo sapiens, UniProt P35916)	86.3%
Tyrosine-protein kinase ITK/TSK (ITK, Homo sapiens, UniProt Q08881)	99.5%
cAMP-dependent protein kinase catalytic subunit PRKX (PRKX, Homo sapiens, UniProt P51817)	97.8%

Single results of other studies
SMILES	tested on	assay	test system	conditions	how to read	endpoint	value
O=C1c2ccc(Nc3ccc(F)cc3F)cc2CCc2ccc(OC[C@H](O)CO)cc21	5-hydroxytryptamine receptor 1A (HTR1A, Homo sapiens, UniProt P08908)	cell-free assay	–	10 µM	–	inhibition	40.5%
O=C(Nc1cccnn1)N1CCC(=Cc2cccc(Oc3ccc(C(F)(F)F)cn3)c2)CC1	Calcium-dependent protein kinase 1 (CDPK1, Plasmodium falciparum, UniProt P62344)	cell-free assay, competition with immobilised ligand	–	1 µM	–	remaining binding	93%
CN[C@@H]1C[C@H]2O[C@@](C)([C@@H]1OC)n1c3ccccc3c3c4c(c5c6ccccc6n2c5c31)C(=O)NC4	normal-adjacent epithelial organoid	cell viability, CellTiter-Glo	human, patient-derived organoid	1 µM	relative to: DMSO	viability	5.5%

A few entries again (set 1):
Variant	oxyanion analog dissociation constant [nM]
Q492V	2510
